Assay results from different studies.
Compare with care: the assays were run in different laboratories. Several values in a cell are separate wells, animals, samples, runs or records. Numbers after ± are the reported error.
SCTR: Secretin receptor (SCTR, Homo sapiens, UniProt P47872)
UniProt P47872, sequence (whole entry, looked up): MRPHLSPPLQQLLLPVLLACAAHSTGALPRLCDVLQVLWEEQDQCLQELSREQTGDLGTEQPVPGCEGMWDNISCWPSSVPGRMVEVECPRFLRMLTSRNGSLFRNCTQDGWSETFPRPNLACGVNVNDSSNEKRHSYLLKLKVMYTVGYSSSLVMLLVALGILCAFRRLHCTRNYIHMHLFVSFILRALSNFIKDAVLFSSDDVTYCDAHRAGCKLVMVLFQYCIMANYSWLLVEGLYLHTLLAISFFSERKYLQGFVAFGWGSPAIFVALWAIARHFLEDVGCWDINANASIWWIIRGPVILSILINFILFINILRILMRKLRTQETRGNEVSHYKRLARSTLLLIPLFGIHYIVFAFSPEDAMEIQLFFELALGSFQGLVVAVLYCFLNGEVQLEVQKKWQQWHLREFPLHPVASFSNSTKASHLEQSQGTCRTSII
POLB I260M: DNA polymerase beta (POLB, Homo sapiens, UniProt P06746, I260M)
UniProt Q14191, sequence (whole entry, looked up): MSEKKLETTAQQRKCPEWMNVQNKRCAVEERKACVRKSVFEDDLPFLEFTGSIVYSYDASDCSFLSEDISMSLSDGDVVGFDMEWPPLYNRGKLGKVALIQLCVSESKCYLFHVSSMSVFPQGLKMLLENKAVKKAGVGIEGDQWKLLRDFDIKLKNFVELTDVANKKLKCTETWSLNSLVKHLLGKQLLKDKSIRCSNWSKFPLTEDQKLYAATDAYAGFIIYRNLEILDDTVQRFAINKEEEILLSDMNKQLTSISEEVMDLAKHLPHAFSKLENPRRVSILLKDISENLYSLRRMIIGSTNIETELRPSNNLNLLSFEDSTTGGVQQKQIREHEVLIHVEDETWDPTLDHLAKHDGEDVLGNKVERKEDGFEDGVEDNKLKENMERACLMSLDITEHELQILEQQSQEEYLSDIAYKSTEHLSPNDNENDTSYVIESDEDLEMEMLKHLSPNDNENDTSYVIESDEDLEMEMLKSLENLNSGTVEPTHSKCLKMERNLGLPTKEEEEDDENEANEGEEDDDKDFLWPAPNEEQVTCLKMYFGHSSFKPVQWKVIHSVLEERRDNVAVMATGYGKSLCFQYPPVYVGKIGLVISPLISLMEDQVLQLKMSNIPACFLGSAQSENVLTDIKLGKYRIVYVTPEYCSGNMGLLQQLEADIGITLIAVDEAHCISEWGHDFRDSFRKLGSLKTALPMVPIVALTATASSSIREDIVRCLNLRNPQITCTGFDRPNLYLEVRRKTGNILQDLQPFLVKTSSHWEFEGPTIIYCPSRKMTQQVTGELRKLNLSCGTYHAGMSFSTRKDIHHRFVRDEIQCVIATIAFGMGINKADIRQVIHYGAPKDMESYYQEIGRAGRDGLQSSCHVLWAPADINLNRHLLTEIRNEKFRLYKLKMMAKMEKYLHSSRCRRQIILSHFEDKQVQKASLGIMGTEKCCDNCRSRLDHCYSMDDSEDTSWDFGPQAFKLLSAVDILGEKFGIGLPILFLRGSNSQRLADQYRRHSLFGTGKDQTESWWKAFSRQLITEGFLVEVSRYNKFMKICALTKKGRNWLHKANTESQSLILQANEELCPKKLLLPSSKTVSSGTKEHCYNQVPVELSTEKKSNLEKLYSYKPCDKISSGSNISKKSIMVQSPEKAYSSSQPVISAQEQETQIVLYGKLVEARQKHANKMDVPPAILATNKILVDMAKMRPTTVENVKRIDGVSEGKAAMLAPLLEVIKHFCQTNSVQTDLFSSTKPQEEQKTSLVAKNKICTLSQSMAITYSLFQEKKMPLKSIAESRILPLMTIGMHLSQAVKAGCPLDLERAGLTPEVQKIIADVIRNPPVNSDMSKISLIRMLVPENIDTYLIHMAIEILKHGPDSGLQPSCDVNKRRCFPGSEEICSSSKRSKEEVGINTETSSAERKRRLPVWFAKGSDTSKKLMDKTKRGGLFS
UniProt P31941, sequence (whole entry, looked up): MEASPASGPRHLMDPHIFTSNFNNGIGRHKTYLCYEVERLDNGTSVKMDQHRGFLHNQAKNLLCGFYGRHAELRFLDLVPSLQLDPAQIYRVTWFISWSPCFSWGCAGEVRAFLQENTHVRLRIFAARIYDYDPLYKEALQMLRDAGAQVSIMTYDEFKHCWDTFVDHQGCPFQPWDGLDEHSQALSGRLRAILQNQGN
UniProt Q5BJF2, sequence (whole entry, looked up): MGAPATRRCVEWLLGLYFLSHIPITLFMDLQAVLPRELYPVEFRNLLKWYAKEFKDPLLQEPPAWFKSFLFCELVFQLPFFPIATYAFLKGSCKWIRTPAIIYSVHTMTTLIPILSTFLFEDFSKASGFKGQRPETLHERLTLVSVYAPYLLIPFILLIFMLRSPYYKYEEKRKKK
UniProt P63073, sequence (whole entry, looked up): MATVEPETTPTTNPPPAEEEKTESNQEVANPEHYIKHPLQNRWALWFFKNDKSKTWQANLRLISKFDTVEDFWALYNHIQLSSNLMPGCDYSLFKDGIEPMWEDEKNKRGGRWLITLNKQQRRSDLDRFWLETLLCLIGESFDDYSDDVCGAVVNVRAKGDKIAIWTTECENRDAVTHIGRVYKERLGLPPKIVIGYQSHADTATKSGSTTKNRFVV
UniProt Q16513, sequence (whole entry, looked up): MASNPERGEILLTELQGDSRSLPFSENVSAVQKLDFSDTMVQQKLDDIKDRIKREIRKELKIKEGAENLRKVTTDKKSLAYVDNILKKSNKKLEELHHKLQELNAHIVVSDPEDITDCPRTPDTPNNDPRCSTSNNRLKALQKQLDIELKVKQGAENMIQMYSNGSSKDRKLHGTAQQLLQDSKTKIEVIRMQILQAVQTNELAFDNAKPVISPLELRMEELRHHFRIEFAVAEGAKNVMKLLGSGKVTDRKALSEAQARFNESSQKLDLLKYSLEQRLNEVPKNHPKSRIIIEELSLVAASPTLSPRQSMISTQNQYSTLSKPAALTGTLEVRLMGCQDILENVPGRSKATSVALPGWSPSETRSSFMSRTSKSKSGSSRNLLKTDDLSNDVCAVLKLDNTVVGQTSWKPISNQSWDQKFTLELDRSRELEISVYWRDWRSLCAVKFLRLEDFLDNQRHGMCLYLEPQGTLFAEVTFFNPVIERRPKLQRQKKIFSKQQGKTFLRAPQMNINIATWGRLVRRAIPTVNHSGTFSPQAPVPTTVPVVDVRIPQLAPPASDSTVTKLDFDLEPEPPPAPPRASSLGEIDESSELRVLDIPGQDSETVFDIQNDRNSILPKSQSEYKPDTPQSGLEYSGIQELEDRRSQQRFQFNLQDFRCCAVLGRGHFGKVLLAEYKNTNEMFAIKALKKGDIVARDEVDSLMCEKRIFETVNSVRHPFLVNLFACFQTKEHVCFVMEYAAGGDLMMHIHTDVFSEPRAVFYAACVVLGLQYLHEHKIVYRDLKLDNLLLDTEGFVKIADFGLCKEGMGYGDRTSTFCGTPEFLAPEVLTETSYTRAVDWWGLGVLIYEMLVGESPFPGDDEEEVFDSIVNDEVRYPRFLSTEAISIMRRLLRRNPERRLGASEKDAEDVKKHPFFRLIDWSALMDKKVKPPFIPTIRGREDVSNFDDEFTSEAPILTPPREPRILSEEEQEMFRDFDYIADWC
UniProt P10145, sequence (whole entry, looked up): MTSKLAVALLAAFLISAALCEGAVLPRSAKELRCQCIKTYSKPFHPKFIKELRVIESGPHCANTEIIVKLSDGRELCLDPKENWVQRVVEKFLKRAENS
UniProt Q8NEB9, sequence (whole entry, looked up): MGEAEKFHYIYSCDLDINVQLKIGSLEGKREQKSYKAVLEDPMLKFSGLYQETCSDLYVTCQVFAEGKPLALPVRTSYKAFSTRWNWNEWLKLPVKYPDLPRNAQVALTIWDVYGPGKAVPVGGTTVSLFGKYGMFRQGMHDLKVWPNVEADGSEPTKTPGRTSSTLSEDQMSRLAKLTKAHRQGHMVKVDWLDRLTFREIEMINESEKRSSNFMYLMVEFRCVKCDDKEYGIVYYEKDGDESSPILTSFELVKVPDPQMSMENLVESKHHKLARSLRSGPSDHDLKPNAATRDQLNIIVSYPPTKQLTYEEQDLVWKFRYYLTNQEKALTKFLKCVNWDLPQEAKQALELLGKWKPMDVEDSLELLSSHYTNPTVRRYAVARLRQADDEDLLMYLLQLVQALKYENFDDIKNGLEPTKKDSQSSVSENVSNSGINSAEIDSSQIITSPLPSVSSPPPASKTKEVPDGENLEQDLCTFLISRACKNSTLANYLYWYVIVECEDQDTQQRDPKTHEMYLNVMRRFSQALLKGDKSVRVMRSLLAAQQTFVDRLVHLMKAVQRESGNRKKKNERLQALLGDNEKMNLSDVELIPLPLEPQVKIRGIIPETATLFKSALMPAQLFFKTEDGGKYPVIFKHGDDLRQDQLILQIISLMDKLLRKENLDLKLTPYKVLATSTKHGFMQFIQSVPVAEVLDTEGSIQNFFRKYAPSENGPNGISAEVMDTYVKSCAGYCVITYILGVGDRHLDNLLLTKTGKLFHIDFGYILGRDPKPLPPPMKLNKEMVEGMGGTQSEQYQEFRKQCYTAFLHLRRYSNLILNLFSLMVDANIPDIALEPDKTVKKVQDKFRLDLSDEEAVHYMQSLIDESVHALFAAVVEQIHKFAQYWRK
UniProt P28336, sequence (whole entry, looked up): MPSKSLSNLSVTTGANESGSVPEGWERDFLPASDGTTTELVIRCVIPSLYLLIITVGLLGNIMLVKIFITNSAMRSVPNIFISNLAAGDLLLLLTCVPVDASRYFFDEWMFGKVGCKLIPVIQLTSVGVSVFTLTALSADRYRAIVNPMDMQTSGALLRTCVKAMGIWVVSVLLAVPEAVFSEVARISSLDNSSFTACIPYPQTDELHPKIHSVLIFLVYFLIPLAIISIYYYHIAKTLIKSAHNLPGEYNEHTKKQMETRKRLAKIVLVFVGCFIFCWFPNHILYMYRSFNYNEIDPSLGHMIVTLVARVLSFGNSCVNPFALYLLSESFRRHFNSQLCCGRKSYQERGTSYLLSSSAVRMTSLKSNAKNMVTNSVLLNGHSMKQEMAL

For CCCCOc1nc(N)c2[nH]c(=O)n(CCCN(CCCN3CCOCC3)Cc3cccc(CC(=O)OC)c3)c2n1, activity read “inactive” (TLR8 (Homo sapiens, UniProt Q9NR97); NF-kB reporter gene, agonist; HEK293 cells; up to 10 µM).
N[C@H]1CC[C@H](Nc2nccc(-c3cccnc3Oc3ccc(NS(=O)(=O)CCC(F)(F)F)c(F)c3)n2)CC1: RNase activity “inhibited” (ERN1 (Homo sapiens, UniProt O75460); inhibitor; concentration not given, added: XBP1 mini-substrate).
For COc1ccc(-c2cc(C(F)(F)F)nc(SCC(=O)N(C)c3ccccc3)n2)cc1, the Emax was 93 ± 18% (SCTR; cAMP accumulation, positive allosteric modulator; CHO-K1 overexpressing SCTR; added: EC10-EC20 secretin peptide mix; reference: EC95 peptide mix).
C[C@@H](N)[C@H]1CC[C@H](C(=O)Nc2ccncc2)CC1: “activity vs control” < 10% (PKN2 (Homo sapiens, UniProt Q16513); enzyme activity, inhibitor, radiometric; 10 µM).
With NC(=O)C1CCNC(=O)C(CCCNC(=O)c2cnccn2)NC(=O)C(Cc2ccco2)NC(=O)C(CC=Cc2ccccc2)NC(=O)C=CC(=O)N1 (centres unmarked) the enrichment factor was 0.95 (KDR (Homo sapiens, UniProt P35968); DNA-templated library selection; one selection round).
For CC(C)CCC[C@@H](C)[C@H]1CC[C@H]2[C@@H]3CC=C4C[C@@H](OS(=O)(=O)O)CC[C@]4(C)[C@H]3CC[C@]12C, the Hill slope was 2 ± 0.3 (Prothrombin (F2, Homo sapiens, UniProt P00734); enzyme activity, inhibitor; added: unfractionated heparin 250 µM).
For COc1cc2c(cc1OC)CN(CCCCNC(=O)c1cc([125I])cc(OC)c1OCCF)CC2, “radioligand binding increase” read 60% (TMEM97 (Homo sapiens, UniProt Q5BJF2); radioligand; HeLa overexpressing PGRMC1, cell membranes; 3.5 nM; reference: vector-transfected cells).
COc1ccc(-c2cc(C(F)(F)F)nc(SCC(=O)N(C)c3ccccc3)n2)cc1OC: “cooperativity factor beta” 0.3 (SCTR; efficacy cooperativity, allosteric modulator; cells overexpressing SCTR; added: secretin(3-27)).
For O=C(Nc1cccc2ncccc12)c1ccc(-c2ccc(Cl)cc2)o1, the activation was ≤ 1.5 fold (Nuclear receptor subfamily 4 group A member 2, ligand binding domain (Homo sapiens, UniProt P43354); reporter gene, agonist, Gal4-Nurr1 hybrid reporter; HEK-293T; 3 µM, crude library product; reference: vehicle (0.1% DMSO)).
CC[C@H](C)[C@H](NC(C)=O)C(=O)N[C@@H](C)C(=O)N[C@@H](CCC(=O)O)C(=O)N[C@@H](CCC(N)=O)C(=O)N[C@@H](CC(C)C)C(=O)N[C@@H](CCCNC(=N)N)C(=O)N[C@@H](CCCNC(=N)N)C(=O)N[C@H](C(=O)NCC(=O)N[C@@H](CC(=O)O)C(=O)N[C@@H](CCCNC(=N)N)C(=O)N[C@@H](Cc1ccc(O)cc1)C(N)=O)[C@@H](C)CC gave an IC50 ratio of ~25 (MCL1 (Homo sapiens, UniProt Q07820); DELFIA displacement; added: biotinylated BIM BH3 peptide; reference: compound over reference).
For CCC1(O)CCCN(C(=O)c2ccc(-c3ccc(F)c(C(N)=O)c3)cc2)C1 (centres unmarked), the signal attenuation was 28.5 ± 3.8% (DNA dC->dU-editing enzyme APOBEC-3A (Homo sapiens, UniProt P31941); binding, 1H CPMG NMR).
The kpol of Nc1nc2c(ncn2[C@H]2C[C@H](O)[C@@H](COP(=O)(O)OP(=O)(O)[C@@H](F)P(=O)(O)O)O2)c(=O)[nH]1 is reported as 0.29 s⁻¹ (DNA polymerase beta (POLB, Homo sapiens, UniProt P06746, R183A); substrate, pre-steady-state kinetics; incorporation opposite dC in gapped DNA).
The relative affinity of C[n+]1cn(C2OC(COP(=O)(O)OP(=O)([O-])OP(=O)(O)OCC3OC(n4cnc5c(=O)[nH]c(N)nc54)C(O)C3O)C(O)C2O)c2nc(NCc3ccc(Cl)cc3)[nH]c(=O)c21 (centres unmarked) is reported as ~5 (Eif4e (Mus musculus, UniProt P63073); differential scanning fluorimetry; reference: m7GpppG).
COc1ccccc1-c1cc(C(F)(F)F)nc(S(=O)(=O)CCCC(=O)Nc2ccn(Cc3ccc(C)cc3)n2)n1 gave an Emax of 147 ± 30% (SCTR; increase of tracer binding, TR-FRET; HEK293 membranes; added: Fluo-Sec 6 nM).
Cc1cn(C2CC(O)C(COP(=O)(O)OP(=O)(O)C(F)(Cl)P(=O)(O)O)O2)c(=O)[nH]c1=O (mixture of isomers) gave a kpol/Kd of 420000 ± 70000 M⁻¹ s⁻¹ (POLB I260M; substrate, single turnover kinetics).
CC(CCC(=O)NCC[S+](C)[O-])C1CCC2C3C(O)CC4CC(O)CCC4(C)C3CC(O)C12C (centres unmarked) — result for activity: “inactive” (Bile acid receptor (NR1H4, Homo sapiens, UniProt Q96RI1); receptor activation, antagonist; concentration not given, added: GW4064).
With COc1ccc(-c2cc(C(F)(F)F)nc(S(=O)(=O)CCCC(=O)Nc3c(F)cc(F)cc3Br)n2)cc1OC the Emax was 128 ± 15% (SCTR; increase of tracer binding, TR-FRET; HEK293 membranes; added: Fluo-Sec 6 nM).
For N=C(N)NCCC[C@H](NC(=O)[C@H](CCCNC(=N)N)NC(=O)[C@H](Cc1ccc(O)cc1)NC(=O)[C@H](CCCCN)NC(=O)[C@H](Cc1ccc(O)cc1)NC(=O)[C@H](CCCCN)NC(=O)[C@H](CCCCN)NC(=O)[C@@H](N)CCCNC(=N)N)C(=O)N[C@@H](CCCCN)C(N)=O, “bound fibrinogen fluorescence” read 492 ± 50 MFI (integrin alphaM beta2 (human); ligand binding, inhibitor, flow cytometry; human neutrophils; concentration not given, 1 h, 37 °C, integrin clustering inhibitor, added: Alexa 488-labelled fibrinogen; reference: no inhibitor, lower means less binding).
For CC(C)C[C@@H](CN[C@@H](Cc1ccc(Cl)cc1)C(N)=O)NC(=O)[C@H](Cc1c[nH]cn1)NC(=O)CNC(=O)[C@@H](NC(=O)[C@H](C)NC(=O)[C@H](Cc1c[nH]c2ccccc12)NC(=O)[C@H](CCC(N)=O)NC(=O)[C@H](N)Cc1ccccc1)C(C)C, the maximal response was 10% (NMBR (Homo sapiens, UniProt P28336); inositol phosphate generation, agonist; NMBR-transfected BALB/3T3; reference: 1 µM NMB).
CC(=O)N[C@@H]1[C@@H](O[C@@H]2O[C@H](C(=O)O)[C@@H](O[C@@H]3O[C@H](COS(=O)(=O)O)[C@@H](OS(=O)(=O)O)[C@H](O[C@@H]4O[C@H](C(=O)O)[C@@H](OS(=O)(=O)O)[C@H](OS(=O)(=O)O)[C@H]4OS(=O)(=O)O)[C@H]3NC(C)=O)[C@H](OS(=O)(=O)O)[C@H]2OS(=O)(=O)O)[C@H](OS(=O)(=O)O)[C@@H](COS(=O)(=O)O)O[C@H]1SCCOCCOCCSSCCOCCOCCS[C@@H]1O[C@H](COS(=O)(=O)O)[C@@H](OS(=O)(=O)O)[C@H](O[C@@H]2O[C@H](C(=O)O)[C@@H](O[C@@H]3O[C@H](COS(=O)(=O)O)[C@@H](OS(=O)(=O)O)[C@H](O[C@@H]4O[C@H](C(=O)O)[C@@H](OS(=O)(=O)O)[C@H](OS(=O)(=O)O)[C@H]4OS(=O)(=O)O)[C@H]3NC(C)=O)[C@H](OS(=O)(=O)O)[C@H]2OS(=O)(=O)O)[C@H]1NC(C)=O: “binding affinity ratio” 417 fold (Interleukin-8 (CXCL8, Homo sapiens, UniProt P10145); FP competition; reference: cpd over monovalent azide analogue, higher = stronger binding).
COc1ccc(-c2cc(C(F)(F)F)nc(S(=O)(=O)CCC(=O)Nc3ccc(C)cc3)n2)cc1 gave an alkylated protein of ~86% and ~85% (WRN (Homo sapiens, UniProt Q14191); intact protein mass spectrometry; overnight, 4 °C, at least one cysteine alkylated, added: 10-fold compound excess).
Cc1cn([C@H]2C[C@H](O)[C@@H](COP(=O)(O)OP(=O)(O)C(Cl)(Cl)P(=O)(O)O)O2)c(=O)[nH]c1=O has a kpol/Kd of 32000 ± 15000 M⁻¹ s⁻¹ (POLB I260M; substrate, single turnover kinetics).
O=C(/C=C/c1ccccc1)Oc1ccc2c(c1)O/C(=C\C=C\c1ccccc1)C2=O has a thermal shift of ~5 °C (PIK3C3 (Homo sapiens, UniProt Q8NEB9); CETSA; HeLa cell lysate; 10 µM).

Some of these lines once more:
For CCCCOc1nc(N)c2[nH]c(=O)n(CCCN(CCCN3CCOCC3)Cc3cccc(CC(=O)OC)c3)c2n1, activity read “inactive” (TLR8 (Homo sapiens, UniProt Q9NR97); NF-kB reporter gene, agonist; HEK293 cells; up to 10 µM).
For COc1cc2c(cc1OC)CN(CCCCNC(=O)c1cc([125I])cc(OC)c1OCCF)CC2, “radioligand binding increase” read 60% (TMEM97 (Homo sapiens, UniProt Q5BJF2); radioligand; HeLa overexpressing PGRMC1, cell membranes; 3.5 nM; reference: vector-transfected cells).
For O=C(Nc1cccc2ncccc12)c1ccc(-c2ccc(Cl)cc2)o1, the activation was ≤ 1.5 fold (Nuclear receptor subfamily 4 group A member 2, ligand binding domain (Homo sapiens, UniProt P43354); reporter gene, agonist, Gal4-Nurr1 hybrid reporter; HEK-293T; 3 µM, crude library product; reference: vehicle (0.1% DMSO)).
